Assay results gathered from unrelated publications.
Each numbered part is a random draw from the data of one study; scales do not carry over between parts.

Block 1
Target: Interferon regulatory factor 5, full length, phosphomimetic (IRF5, Homo sapiens, UniProt Q13568-2, residues 1-514, K96S/S451D/S453D/S456D/S462D)
Technique: protein-binding microarray
Form: double-stranded DNA, one strand shown
Medium: in vitro
Concentration: 250 nM
Setting: 60-bp whole probe
Added: salmon DNA 0.4 mg/ml
Reference: random background probes
Reading: higher = stronger binding
| Oligonucleotide | log fluorescence |
| --- | --- |
| GCCTAGCACGTCTGTTTCCTCTTTCTTTGGTGCTAGGTCTTGATTCGCTTGACGCTGCTG | 1.69 z-score |
| GCCTAGCACGACGGTTTCCGTATCCTGACGTGCTAGGTCTTGATTCGCTTGACGCTGCTG | 0.879 z-score |
| GCCTAGCACTCATTTTTTTACTTCGGACTGTGCTAGGTCTTGATTCGCTTGACGCTGCTG | 0.848 z-score |
| GCCTAGCACGACGATCTCAGACTGGAGAAGTGCTAGGTCTTGATTCGCTTGACGCTGCTG | -0.464 z-score |

Block 2
Target: Histone acetyltransferase KAT6A, both winged helices, GST fusion (KAT6A, Homo sapiens, UniProt Q92794, residues 1-181)
Technique: protein binding microarray
Form: double-stranded DNA, one strand shown
Medium: in vitro
Concentration: not given
Setting: 8-mer, flanks averaged, mean of 2 arrays, mostly near background
Reference: not given
Reading: higher = stronger binding
Target sequence (chain): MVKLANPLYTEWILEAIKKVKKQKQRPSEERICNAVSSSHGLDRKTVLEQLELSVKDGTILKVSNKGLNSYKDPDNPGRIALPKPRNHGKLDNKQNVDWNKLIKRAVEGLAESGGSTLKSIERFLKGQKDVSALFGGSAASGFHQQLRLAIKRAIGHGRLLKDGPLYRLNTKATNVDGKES
| Oligonucleotide | E-score |
| --- | --- |
| AAGCCTCA | -0.299 |
| TAGAAAGA | -0.0716 |
| GCTTCGCA | 0.0606 |
| AGAAGGCA | -0.238 |

Single results of other studies
G3BP1 full length: Ras GTPase-activating protein-binding protein 1, full length (G3BP1, Homo sapiens, UniProt Q13283)
Sequence of UniProt Q13283 (whole entry, looked up): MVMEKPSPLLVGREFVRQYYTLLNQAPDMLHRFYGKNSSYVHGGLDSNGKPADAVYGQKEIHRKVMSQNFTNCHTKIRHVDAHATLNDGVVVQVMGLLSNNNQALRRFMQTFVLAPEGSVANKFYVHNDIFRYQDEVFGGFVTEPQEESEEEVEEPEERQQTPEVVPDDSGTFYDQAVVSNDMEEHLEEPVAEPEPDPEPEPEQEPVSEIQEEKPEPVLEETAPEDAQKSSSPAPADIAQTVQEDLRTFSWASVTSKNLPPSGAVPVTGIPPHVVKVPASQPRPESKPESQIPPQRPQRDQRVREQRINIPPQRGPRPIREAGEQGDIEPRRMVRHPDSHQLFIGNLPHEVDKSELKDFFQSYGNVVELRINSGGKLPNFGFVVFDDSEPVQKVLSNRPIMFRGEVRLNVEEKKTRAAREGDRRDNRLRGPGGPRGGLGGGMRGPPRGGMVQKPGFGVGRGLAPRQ
| Substance | target | assay | test system | setting | scale | quantity | result |
| --- | --- | --- | --- | --- | --- | --- | --- |
| GGGAGUUCUACAGUCCGACGAUCAAGUCCUGUGCUACACAUCGUAUGUACCGAAUCGGUUUUUGGUUUGGAAAAAAAGGAAAGUAUUAUGUUACGCCGUUCGGAUCUGCACUUUGGAAUUCUCGGGUGUCAAGG (7-deaza-guanosine replaces G) | G3BP1 full length | RNA Bind-n-Seq | RNA, in vitro | 200 nM, whole 134-nt RNA, ends assumed, added: 150 mM LiCl | reference: input library, higher = stronger binding | log2 enrichment | -1.91 |
| PhoQ, residues 284 288 289 292 302 303 ASTSDA | PhoP, residues 12 14 15 18 19 NIMAP (Escherichia coli, UniProt P23836) | Sort-seq, measured: YFP reporter | E. coli | PhoQ-PhoP variant library, added: 10 µM Mg2+ | reference: high Mg2+ state, higher = stronger signaling | fold induction | 0.594 |
| GGGAGUUCUACAGUCCGACGAUCAGUCCUGUGCUACACAUCGUAUGUACCGAAUCAAACCCAAAUUUAAAUUUUUUUAAAAAAGUAUUAUGUUACGCCGUUCGGAUCUGCACUUGGAAUUCUCGGGUGUCAAGG | G3BP1 full length | RNA Bind-n-Seq | RNA, in vitro | 200 nM, whole 134-nt RNA, ends assumed, added: 150 mM KCl | reference: input library, higher = stronger binding | log2 enrichment | -0.344 |

Excerpt of the above (block 1):
| Oligonucleotide | log fluorescence |
| --- | --- |
| GCCTAGCACGACGATCTCAGACTGGAGAAGTGCTAGGTCTTGATTCGCTTGACGCTGCTG | -0.464 z-score |
